Measured values pooled from the literature.
A part holds a random share of what one study measured. Changes are numbered by the printed parent chain.

Series 1
Target: Prothrombin, mature alpha-thrombin (F2, Homo sapiens, UniProt P00734)
Technique: aptamer microarray, sandwich
Form: DNA with 2'F-ANA
Sample: in vitro
Tested at: 200 nM
Notes: whole 15-mer aptamer, many near background
Together with: Cy3 exosite-II aptamer, 400 nM
Reading: higher = stronger binding
Oligonucleotide: GGTTGGTGTGGTTGG
Modification | mean fluorescence intensity
2'F-ANA at 1 2 3 4 7 8 9 14 15 | 61.7 a.u.
2'F-ANA at 1 2 4 5 6 7 8 9 10 12 14 15 | 67.2 a.u.
2'F-ANA at 1 2 4 9 10 13 14 | 40.6 a.u.
2'F-ANA at 2 3 4 5 9 14 15 | 51.3 a.u.
2'F-ANA at 1 3 6 8 9 12 15 | 535 a.u.
2'F-ANA at 1 3 4 6 7 8 13 14 15 | 67 a.u.
2'F-ANA at 3 5 7 10 11 12 13 15 | 60.9 a.u.
2'F-ANA at 2 7 8 9 11 12 13 | 572 a.u.
2'F-ANA at 1 4 7 10 12 13 14 15 | 57.1 a.u.
2'F-ANA at 2 4 6 7 8 9 10 11 12 14 15 | 130 a.u.
2'F-ANA at 1 5 6 7 8 9 11 12 14 | 51.1 a.u.
2'F-ANA at 1 3 4 7 9 11 12 13 14 | 70.3 a.u.
2'F-ANA at 2 3 5 6 9 10 | 51.5 a.u.
2'F-ANA at 1 3 4 5 6 7 10 12 15 | 50.4 a.u.
2'F-ANA at 1 5 7 8 9 10 12 13 14 15 | 46.4 a.u.
2'F-ANA at 1 3 4 6 7 8 10 13 14 | 52.1 a.u.

Series 2
Target: Histone acetyltransferase KAT6A, winged helix 1, GST fusion (KAT6A, Homo sapiens, UniProt Q92794, residues 1-85)
Technique: protein binding microarray
Form: double-stranded DNA, one strand shown
Sample: in vitro
Tested at: not given
Notes: 8-mer, flanks averaged, mean of 2 arrays, mostly near background
Relative to: not given
Reading: higher = stronger binding
Target sequence (chain): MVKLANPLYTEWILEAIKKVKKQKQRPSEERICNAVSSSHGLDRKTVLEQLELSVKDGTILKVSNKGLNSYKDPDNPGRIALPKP
Oligonucleotide | E-score
ACCTCCTG | -0.226
AGTTGGCA | -0.237
GCGCGTGA | 0.41
CTCGAGTA | -0.0951
CATAAAAG | -0.18
GGGATTAA | 0.00701
GCCTTAGC | 0.0035
CAACGAGC | -0.0575
ACTTTCCT | -0.0694
CCGTGTGA | 0.137
CTACTGAA | -0.0705
AGGCACAT | -0.137
CCCGGTAC | 0.185
CATTTGTC | -0.253
CTACGTAA | 0.163
CATCTAAC | -0.0151
CCGCTGAG | 0.18
AGCCACCG | 0.177
ACCCGGGC | 0.315
AGACTATA | -0.0312
CTAATGCC | 0.13

Series 3
Target: Ras GTPase-activating protein-binding protein 1, C-terminal RGG region (G3BP1, Homo sapiens, UniProt Q13283)
Sequence of UniProt Q13283 (whole entry, looked up): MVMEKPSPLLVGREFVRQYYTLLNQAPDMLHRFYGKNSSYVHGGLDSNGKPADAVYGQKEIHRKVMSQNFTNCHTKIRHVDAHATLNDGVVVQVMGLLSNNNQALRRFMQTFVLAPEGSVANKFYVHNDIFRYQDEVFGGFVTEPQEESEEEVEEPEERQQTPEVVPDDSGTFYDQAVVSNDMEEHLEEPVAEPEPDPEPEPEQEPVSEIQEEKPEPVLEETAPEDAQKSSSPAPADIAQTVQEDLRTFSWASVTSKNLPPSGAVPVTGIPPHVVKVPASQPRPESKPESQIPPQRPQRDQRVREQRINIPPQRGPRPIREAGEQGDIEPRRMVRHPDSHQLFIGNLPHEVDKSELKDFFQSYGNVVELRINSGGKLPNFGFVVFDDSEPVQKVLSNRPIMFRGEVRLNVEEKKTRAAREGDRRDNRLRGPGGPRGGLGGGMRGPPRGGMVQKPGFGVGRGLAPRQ
Technique: RNA Bind-n-Seq
Form: RNA
Sample: in vitro
Tested at: 1 µM
Notes: whole 134-nt RNA, ends assumed
Together with: 150 mM KCl
Relative to: input library
Reading: higher = stronger binding
Oligonucleotide | log2 enrichment
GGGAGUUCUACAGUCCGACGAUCUAACUUUAGAGGAGGAUCUCAUGGAUAUGGCAGUGGACGUGGAUUUGGGGAUGGCUAUAAUGGGUAUGGAGGAGGACCUGGAGGUGGCAAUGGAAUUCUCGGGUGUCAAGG | -1.15
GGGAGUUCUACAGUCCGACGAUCUCCUGUGCUACACAUCGUAUGUACCGAAUCGGGAAAAAGGGUUUUUGGGAAAAAAAGGGAAAGUAUUAUGUUACGCCGUUCGGAUCUGCAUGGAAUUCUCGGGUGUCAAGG | -0.871
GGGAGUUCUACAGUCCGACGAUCUUCCAUUGUGAACGUGCCUGGUGAGUCUACUCUUCGCCGAGAUUUCCUGAGACUGCAGCAGGAGAACAAGGAACGUUCCGAGGCUCUUCGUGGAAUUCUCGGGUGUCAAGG | -1.68
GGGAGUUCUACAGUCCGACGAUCUUCUGCACCUCUGCUACCUAAAGAAGACCCAAUCUUCACAUAUUUAUCUAAACGGUUAGGAAGGAGUAUAGAUGACAUAGGUCACCUCAUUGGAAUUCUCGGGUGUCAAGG | -0.576
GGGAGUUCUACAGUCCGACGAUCCAAGUCCUGUGCUACACAUCGUAUGUACCGAAUCGGAGGAAAAAAAGGUUUUUGGAAAGUAUUAUGUUACGCCGUUCGGAUCUGCACUUCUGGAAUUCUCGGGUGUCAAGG | -1.87
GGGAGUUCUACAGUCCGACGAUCUGGCCCUGGUGGCAUGCGGGGAGGAAGAGGUGGCCUCAUGGAUCGUGGUGGUCCCGGUGGAAUGUUCAGAGGUGGCCGAGGUGGAGACAGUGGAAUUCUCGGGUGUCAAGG | 2.76
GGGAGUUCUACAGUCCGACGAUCUUGAGAUUGGGUGGAUUCCUAUCAUCUGGAAUUCUGACUCCUCGGGUCUCCUUCUCUAGGUAGCCCAGCAGCAGUGAAGAUGCAGACUGAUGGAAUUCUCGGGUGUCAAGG | -1.74
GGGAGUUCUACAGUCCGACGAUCCCUCAAGUCCUGUGCUACACAUCGUAUGUACCGAAUCGGGGAGGGAGGAGGGGAAAGUAUUAUGUUACGCCGUUCGGAUCUGCACUUCCAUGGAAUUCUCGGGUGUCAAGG | 0.906
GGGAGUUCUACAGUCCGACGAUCCAAGUCCUGUGCUACACAUCGUAUGUACCGAAUCAAACCCAAACCCAAAUUUAAAAAAGUAUUAUGUUACGCCGUUCGGAUCUGCACUUCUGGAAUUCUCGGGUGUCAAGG | -0.8
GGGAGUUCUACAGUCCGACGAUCUAACUUUAGAGGAGGAUCUGAUGGAUAUGGCAGUGGACGUGGAUUUGGGGAUGGCUAUAAUGGCUAUGGAGGAGGACCUGGAGGUGGCAAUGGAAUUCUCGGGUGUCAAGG | -0.753
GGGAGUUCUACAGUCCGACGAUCAGUCCUGUGCUACACAUCGUAUGUACCGAAUCGGGUUUUUGGGUGGGAAAAAAAGGGAAAGUAUUAUGUUACGCCGUUCGGAUCUGCACUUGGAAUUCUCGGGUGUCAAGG | -0.0921
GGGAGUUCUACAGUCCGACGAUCUCCUGUGCUACACAUCGUAUGUACCGAAUCGGGGAAAGGGGUUUUUGGGGAAAAAGGGGAAAGUAUUAUGUUACGCCGUUCGGAUCUGCAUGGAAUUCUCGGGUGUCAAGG | 1.44
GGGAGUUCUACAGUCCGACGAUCUCCUGUGCUACACAUCGUAUGUACCGAAUCGGGGCCCCCCGGCCCCCCGGCCCCCCGGGAAAGUAUUAUGUUACGCCGUUCGGAUCUGCAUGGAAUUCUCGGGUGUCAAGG | -1.31
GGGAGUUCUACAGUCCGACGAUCCUGUGCUACACAUCGUAUGUACCGAAUCGGGUUUUUUUGGGUUUUUUUGGUUUUUUUGGGGAAAGUAUUAUGUUACGCCGUUCGGAUCUGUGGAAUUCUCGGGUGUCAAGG | -1.28

Series 4
Target: RNA binding protein fox-1 homolog 2, RRM domain, GST-SBP tag (RBFOX2, Homo sapiens, UniProt O43251-10, residues 100-194)
Technique: RNA Bind-n-Seq
Form: RNA
Sample: in vitro
Tested at: 365 nM
Notes: natural RNA segment, single round, ends assumed
Relative to: no-protein control
Reading: higher = stronger binding
Residues (chain): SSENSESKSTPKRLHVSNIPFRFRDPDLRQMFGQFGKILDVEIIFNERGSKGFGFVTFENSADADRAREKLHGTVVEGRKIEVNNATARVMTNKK
Oligonucleotide | RBNS enrichment (R)
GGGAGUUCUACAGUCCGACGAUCCUCCCUGUAUGUUAAACCCUUGACCAGUUUACUCGUUUCUAUCCUGGAAGAUUUUUAACAAAGGGAAAAACCAACAGCAAUAAGUCAUUGGUGAGCAGCUAACUCGCUCAUGGAAUUCUCGGGUGCCAA | 0.355
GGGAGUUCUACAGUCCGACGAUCAGUUCUGUUCAGCCAUCAGAAGAGAGACAAGGAAUUAAAAAUUUCUUUUUAAUCCUGUUACCAAAUAGCCAUUUGUCUCUUCUCUUUACUUUUAGAAUAUCAACUUUUUUUGGAAUUCUCGGGUGCCAA | 0.43
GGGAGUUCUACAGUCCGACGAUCGGAGGAGGAAGAGGAGGAAGAAAGAUGGUGGGAAAGACAUCCAAGACUUUCUCGCUUUCUAAAUGCGGCAAUUUCCUGGUACUGCCUUAAAGACACAGUGCCCUCCCUUCUGGAAUUCUCGGGUGCCAA | 0.243
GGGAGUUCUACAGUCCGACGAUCCAAGGGAACCAGAGUUUGGUUCUUUAUGCAAAUUUUUUCCCAAUGAAAUAAAACAUAGUUAACUGUGUUUGAUGUGAAAUAAUAGAUUGUGGGUAGAGGUGAGGCCAAAAUGGAAUUCUCGGGUGCCAA | 0.497
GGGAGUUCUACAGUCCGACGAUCGAAUAUGAGAAUUUGAUAUGUAAUUAUUUCACAAAUAUGAUCUUUUCAAUAACAAAAUAUCGUAAGUAGAAUGCUUUUGUGCCUUUGGAUACAAGAUUAAUCUUUAGAAAUGGAAUUCUCGGGUGCCAA | 0.601
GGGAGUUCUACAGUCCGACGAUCUUCCUUGGAACAUGUAAGAACUGUGCAGUAGCCAUUUAUGGUUUAAAGUAAACAGGCCAGAUGAACCUGAGGGAUAAUAGAUUACAAAGAAUAUAUUUUUGUUAUGGCUGUGGAAUUCUCGGGUGCCAA | 0.277
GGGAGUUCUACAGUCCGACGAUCAAACACUACAGAUAUUUUGAAUAUCAGUCAUGAUGGCAAUUUCUGUAUAAAAGAGCCUUAAAUGGAACAUUGUUUUGAGAUCAAACUCCCUACCCUCACAAAAGUGGCCAUGGAAUUCUCGGGUGCCAA | 0.273
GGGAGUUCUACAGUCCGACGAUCUCUAGUGGGCAGGGUGAGUGAUGGCUGAAUCGCUUUGUCCACCUGUGUGUGUGUCUUAGUGGAUCUUUACUUACCCAGGAGCAGGGCUAUGCUUACUCCUUGAAGCUCCUUGGAAUUCUCGGGUGCCAA | 0.652
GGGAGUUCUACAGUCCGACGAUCCAUAUUCUCUGUCAGCAGCAGCACUCCCACACCAGGUGGUUCUGGGCUCUCUGUAGGCUGGUCCUAGUAGGUGACACCCAGCAACACCCCUGUUGGACAGGAUUGAUUGUUGGAAUUCUCGGGUGCCAA | 0.361
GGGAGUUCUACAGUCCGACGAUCUGGCUCGGGCCAGACUUCAUCCAUUUAGAGAGAAGCAGUACUUCCUGUUUGUGUGCCCAUCUUAAAUACCUUGAAAAGUACUAUGUCCCAGGUGGUGUCAUGGAUGCUUUUGGAAUUCUCGGGUGCCAA | 0.325
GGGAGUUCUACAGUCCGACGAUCCUGUCAAAGGGUGUUUUCGGAAUCACUUUUGUGUUUCGUAUAGUAAAACAAUGUGAUUCAUUCCAAAGUAACAGAAGGCUAUUUGUAAGAAAGAUAAAGGCUUGUGAACAUGGAAUUCUCGGGUGCCAA | 0.431
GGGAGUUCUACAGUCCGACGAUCGCCCUCCACUUUAUCCCAUAUUUUUGCUGUCAAAUUCUUAGUCUAGAGGAGACUGAGCUAACUUCAGCUUGCUUGCUUGCUUGCUUGCUUGCUUGCUUGCUUGCUUGCCCUGGAAUUCUCGGGUGCCAA | 1.55

Series 5
Target: CCND1, cyclin fold, Cln2 fusion (human)
Technique: yeast growth competition, sequencing
Sample: yeast
Notes: weak parent motif
Relative to: not given
Reading: higher = stronger binding
Starting sequence: RRM2 docking peptide (human); SKTARRIFQEPTE
Change | normalised enrichment score
P11A | 0.181
T3A | 0.204
K2A | 0.322
R5A | 0.308
S1A | 0.198
E13A | 0.225

Excerpt of the above (series 1):
Modification | mean fluorescence intensity
2'F-ANA at 2 4 6 7 8 9 10 11 12 14 15 | 130 a.u.
2'F-ANA at 1 3 4 6 7 8 13 14 15 | 67 a.u.
2'F-ANA at 1 3 4 5 6 7 10 12 15 | 50.4 a.u.
2'F-ANA at 1 4 7 10 12 13 14 15 | 57.1 a.u.
2'F-ANA at 1 2 4 9 10 13 14 | 40.6 a.u.
2'F-ANA at 2 3 4 5 9 14 15 | 51.3 a.u.
2'F-ANA at 1 3 4 6 7 8 10 13 14 | 52.1 a.u.
2'F-ANA at 2 3 5 6 9 10 | 51.5 a.u.
